Experimental data collected from several papers.
Parts stem from different laboratories: compare values within a part only.

Block 1
Target: Histone acetyltransferase KAT6A, winged helix 2, GST fusion (KAT6A, Homo sapiens, UniProt Q92794, residues 85-181)
Technique: protein binding microarray
Molecule type: double-stranded DNA, one strand shown
Medium: in vitro
Tested at: not given
Notes: 8-mer, flanks averaged, mean of 2 arrays, mostly near background
Baseline: not given
Reading: higher = stronger binding
Construct (chain): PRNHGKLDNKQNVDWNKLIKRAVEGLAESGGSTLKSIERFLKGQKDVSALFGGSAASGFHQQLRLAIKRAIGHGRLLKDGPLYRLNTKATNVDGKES
With `ATATCGAG` the E-score was 0.0933.
The E-score of `CGGTACGA` is reported as -0.0778.
`AGTAAATC` has an E-score of 0.0685.
`AGCCTCCC` has an E-score of 0.00394.
`ATCGGACG` has an E-score of 0.0034.
`GCTTCAAA` gave an E-score of 0.0955.
With `ACTCCAGC` the E-score was 0.0253.
With `CCCTCCTC` the E-score was 0.118.
With `ATCACGCC` the E-score was 0.0593.

Block 2
Target: Sal-like protein 4, full length isoform B (SALL4, Homo sapiens, UniProt Q9UJQ4-2, residues 1-616)
Technique: universal PBM
Molecule type: double-stranded DNA, one strand shown
Medium: in vitro
Tested at: not given
Notes: 8-mer, flanks averaged, mean of replicates
Reading: higher = stronger binding
`ACAGAATC` has an E-score of -0.0641.
`AGTCGTCC` has an E-score of -0.232.
For `ATTGGACG`, the E-score was 0.118.
`CTCGCATC` gave an E-score of -0.132.
`GACTAGGC` has an E-score of -0.0486.
`CTTTTAGA` gave an E-score of 0.0189.
With `AGGGCGTC` the E-score was -0.211.
With `GAAGCACA` the E-score was 0.174.
For `GGAACTGA`, the E-score was -0.115.
With `GCTAAGGA` the E-score was -0.248.
The E-score of `ACACTTGG` is reported as 0.0787.

Block 3
Target: Probable WRKY transcription factor 11, DNA-binding domain (WRKY11, Arabidopsis thaliana, UniProt Q9SV15, residues 228-325)
Technique: DNA-protein interaction ELISA
Molecule type: double-stranded DNA, one strand shown
Medium: in vitro, bacterial lysate
Tested at: not given
Notes: whole dsDNA probe, crude lysate protein
Baseline: highest signal in screen
Reading: higher = stronger binding
Construct (chain): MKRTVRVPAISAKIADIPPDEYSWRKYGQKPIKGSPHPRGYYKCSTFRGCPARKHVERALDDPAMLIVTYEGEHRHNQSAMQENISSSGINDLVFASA
The relative absorbance of `AAAAAACCTTACTGTTGATTCTGGTTAAAA` is reported as 15.6 % of maximum.
`AAAAAAACGGGTTGTGAATGTGGAAGAAAA` has a relative absorbance of 13.5 % of maximum.
The relative absorbance of `AAAAAAACCCGGCCGCCATGGTAGTAAAAA` is reported as 15.8 % of maximum.
For `AAAAAATGTCTAGACTCGGACATTCGAAAA`, the relative absorbance was 14.4 % of maximum.
The relative absorbance of `AAAAAACGCCGGACAATCAGGCGCTCAAAA` is reported as 14.4 % of maximum.
For `AAAAAAAGTTTGACCTTGGCGTTCGTAAAA`, the relative absorbance was 98 % of maximum.
`AAAAAAGTCATTATAACCCAAACTCTAAAA` has a relative absorbance of 12.1 % of maximum.
The relative absorbance of `AAAAAACGGTAAGTCGACAAAA` is reported as 15 % of maximum.
`AAAAAAATTCATGCTATTTAACCTTAAAAA` gave a relative absorbance of 19.6 % of maximum.
`AAAAAATCTGTTCTCGTTTCCCCTTCAAAA` has a relative absorbance of 17.9 % of maximum.
For `AAAAAAGTCGTCACGCACGTGAATACAAAA`, the relative absorbance was 32.9 % of maximum.

Mixed results
With `PhoQ, residues 284 288 289 292 302 303 SSTMSV` the fold induction was 3.24 (PhoP, residues 12 14 15 18 19 NQGLL (Escherichia coli, UniProt P23836); Sort-seq, item: YFP reporter; E. coli; PhoQ-PhoP variant library, added: 10 µM Mg2+; baseline: high Mg2+ state, higher = stronger signaling).

Excerpt of the above (block 3):
For `AAAAAATGTCTAGACTCGGACATTCGAAAA`, the relative absorbance was 14.4 % of maximum.
The relative absorbance of `AAAAAACGCCGGACAATCAGGCGCTCAAAA` is reported as 14.4 % of maximum.
The relative absorbance of `AAAAAACCTTACTGTTGATTCTGGTTAAAA` is reported as 15.6 % of maximum.
`AAAAAAATTCATGCTATTTAACCTTAAAAA` gave a relative absorbance of 19.6 % of maximum.
For `AAAAAAGTCGTCACGCACGTGAATACAAAA`, the relative absorbance was 32.9 % of maximum.
